Experimental data from different studies.

SMILES = CCCCN1C(=O)c2cccc3c(NCCCCCCCCN4CCOCC4)ccc(c23)C1=O; system = methanol; absorption maximum = 443 nm
SMILES = O=c1cc(/C=C/c2ccc(N3CCCC3)cc2)oc(/C=C/c2ccc(N3CCCC3)cc2)c1; system = acetonitrile; setting = 10 µM, 298 K; absorption maximum = 423 nm
SMILES = CCCCN1C(=O)c2cccc3c(NCCCN4CCOCC4)ccc(c23)C1=O; system = water; setting = pH 6.0; absorption maximum = 446 nm
SMILES = CN(C)c1ccc(/C=C/c2cc(=O)cc(/C=C/c3ccc(N(C)C)cc3)o2)cc1; system = acetonitrile; setting = 10 µM, 298 K; absorption maximum = 417 nm
SMILES = COC(=O)c1ccccc1-c1c2ccc(=O)cc-2oc2c1ccc1cccc(N)c12; system = aqueous HCl 10% DMSO; setting = 10 to 15 µM, pH 1.9; absorption maximum = 598 nm
SMILES = CN1CCN(c2ccc(/C=C/c3cc(=O)cc(/C=C/c4ccc(N5CCN(C)CC5)cc4)o3)cc2)CC1; system = acetonitrile; setting = 10 µM, 298 K; absorption maximum = 404 nm
SMILES = CCN(CC)c1ccc2c(c1)O[B-]1(c3ccccc3)OC(=O)C(c3ccccc3)=N[N+]1=C2 (stereo not shown); system = toluene; absorption maximum = 472 nm
SMILES = CCCCN1C(=O)c2cccc3c(NCCCCCCCCCCN4CCOCC4)ccc(c23)C1=O; system = toluene; absorption maximum = 423 nm
SMILES = CCN(CC)c1ccc2c(c1)O[B-]1(c3ccccc3C#N)OC(=O)C(c3ccccc3)=N[N+]1=C2CC(C)C (stereo not shown); system = toluene; absorption maximum = 471 nm
SMILES = O=c1cc(/C=C/c2ccc(N3CCOCC3)cc2)oc(/C=C/c2ccc(N3CCOCC3)cc2)c1; system = acetonitrile; setting = 10 µM, 298 K; absorption maximum = 396 nm
SMILES = CCC1=[N+]2N=C(c3ccccc3)C(=O)O[B-]2(c2ccccc2)Oc2cc(OC)ccc21 (stereo not shown); system = toluene; absorption maximum = 425 nm
SMILES = O=c1cc(/C=C/c2ccc(N(c3ccccc3)c3ccccc3)cc2)oc(/C=C/c2ccc(N(c3ccccc3)c3ccccc3)cc2)c1; system = acetonitrile/water 1:19 v/v; setting = 10 µM, 298 K, aggregate nanoparticle suspension; absorption maximum = 413 nm
SMILES = CCN(CC)c1ccc2c(c1)O[B-]1(c3c(C)cccc3C)OC(=O)C(c3ccccc3)=N[N+]1=C2 (stereo not shown); system = toluene; absorption maximum = 471 nm
SMILES = CCCCN1C(=O)c2cccc3c(NCCN4CCOCC4)ccc(c23)C1=O; system = acetonitrile; absorption maximum = 430 nm
SMILES = CCN(CC)c1ccc2c(c1)O[B-]1(c3ccccc3C)OC(=O)C(c3ccccc3)=N[N+]1=C2 (stereo not shown); system = toluene; absorption maximum = 470 nm
SMILES = CC1(C)C(/C=C/C2=C(Cl)C(=C/C=C3/N(CCCCCC(=O)O)c4ccccc4C3(C)C)/C[N+](C)(C)C2)=[N+](CCCCCC(=O)O)c2ccccc21; system = methanol; absorption maximum = 753 nm

Excerpt of the above:
SMILES = CN1CCN(c2ccc(/C=C/c3cc(=O)cc(/C=C/c4ccc(N5CCN(C)CC5)cc4)o3)cc2)CC1; system = acetonitrile; setting = 10 µM, 298 K; absorption maximum = 404 nm
SMILES = CCN(CC)c1ccc2c(c1)O[B-]1(c3ccccc3)OC(=O)C(c3ccccc3)=N[N+]1=C2 (stereo not shown); system = toluene; absorption maximum = 472 nm
SMILES = CCCCN1C(=O)c2cccc3c(NCCCCCCCCCCN4CCOCC4)ccc(c23)C1=O; system = toluene; absorption maximum = 423 nm
